Measured values pooled from the literature.
Compare with care: the assays were run in different laboratories. Several values in a cell are separate wells, animals, samples, runs or records.

| SMILES | tested on | assay | system | conditions | how to read | endpoint | result |
| --- | --- | --- | --- | --- | --- | --- | --- |
| COc1ccccc1-c1ccncc1C(=O)Nc1nnc(OCc2ccc(Cl)cc2)s1 | MDA-MB-231 |  |  | 6 µM, single replicate | relative to: untreated | colony survival | 77.8% and 97.1% |
| Nc1ncc(-c2cc(-c3cnn(CC(F)(F)F)c3)ncc2F)nc1C(=O)NC1CNCC(F)C1 (stereo not drawn) | SGK2 | KINOMEscan |  | 1 µM | relative to: DMSO control | remaining binding | 100% |
| Cc1ncsc1-c1ccc(C(C)NC(=O)C2CC(O)CN2C(=O)C(NC(=O)CCCCCCCCCCN2CCCC(Nc3ncc(Cl)c(Nc4ccccc4S(=O)(=O)C(C)C)n3)C2)C(C)(C)C)cc1 (stereo not drawn) | 22Rv1 | RNA-seq, item: SH3TC1 mRNA |  | concentration not given | relative to: DMSO | log2 fold change | -1.44 |
| CNS(=O)(=O)Nc1nccc(Cc2c(C)c3ccc(Oc4ncccc4F)cc3oc2=O)c1F | BALL-1 | cell viability |  | 7 days |  | IC50 | > 1 µM |
| CN1CCCNC(=O)c2cccc(c2)C(=O)NCCCN(C)CCCNc2cccc3c2C(=O)c2cccc(c2C3=O)NCCC1 | SAS | RNA-Seq, item: ZDHHC24 mRNA |  | 1 µM, 6 h | relative to: untreated cells | log2 fold change | -0.733 |
| c1ccc(-c2n[nH]cc2-c2ccnc3ccccc23)nc1 | KIN3 (Candida albicans) | kinase binding, MIB/MS competition | Candida albicans lysate | 1 µM | relative to: DMSO | log2 fold change | -0.01 |
| C=CC(=O)Nc1cccc(Cn2ncc3cnc(Nc4cnn(CCOC)c4)nc32)c1 | human KIT-autoinhibited | KINOMEscan |  | 100 nM |  | binding | 66% |
| COC1CN([C@H]2CC[C@H]([C@@]3(C)Oc4c(Cl)cc(C(=O)NCc5c(SC)cc(C)[nH]c5=O)c(C)c4O3)CC2)C1 |  | RNA-seq, item: METTL27 | human, whole blood | dose not given, 24 h | relative to: pretreatment baseline | log2 fold change | 2.43 |
| CCN(CC)CC(=O)Nc1cccc(-n2cc(-c3ccc4ccc(-c5cn(-c6cccc(NC(=O)CN(CC)CC)c6)nn5)cc4c3)nn2)c1 | RCC4 | PCR angiogenesis array, item: IGF1 |  | 5 x IC50, 2 h, normoxia | relative to: untreated | fold regulation | 2.18 |

For quick reference, copied from above:
| SMILES | tested on | assay | system | conditions | how to read | endpoint | result |
| --- | --- | --- | --- | --- | --- | --- | --- |
| CN1CCCNC(=O)c2cccc(c2)C(=O)NCCCN(C)CCCNc2cccc3c2C(=O)c2cccc(c2C3=O)NCCC1 | SAS | RNA-Seq, item: ZDHHC24 mRNA |  | 1 µM, 6 h | relative to: untreated cells | log2 fold change | -0.733 |
